Published values gathered from unrelated publications.
A part holds a random share of what one study measured.

Series 1
Target: Prothrombin, mature alpha-thrombin (F2, Homo sapiens, UniProt P00734)
Technique: aptamer microarray, sandwich
Molecule type: DNA with 2'F-ANA
Sample: in vitro
Concentration: 200 nM
Setting: whole 15-mer aptamer, many near background
With: Cy3 exosite-II aptamer, 400 nM
Reading: higher = stronger binding
Sequence: GGTTGGTGTGGTTGG
Modification	mean fluorescence intensity
2'F-ANA at 2 3 4 5 6 7 8 9 11 13	64.2 a.u.
2'F-ANA at 1 3 5 6 7 9 10 12 13 15	49.3 a.u.
2'F-ANA at 1 2 3 4 5 8 9 10 11 13	74.7 a.u.
2'F-ANA at 2 5 9 10 11 14 15	62 a.u.
2'F-ANA at 2 3 4 6 7 9 12 13 14	227 a.u.
2'F-ANA at 4 6 7 9 11 13 14	66.5 a.u.
2'F-ANA at 1 5 6 9 14	45.2 a.u.
2'F-ANA at 2 4 5 6 7 8 9 10 11 14	47.1 a.u.
2'F-ANA at 1 2 3 7 8 11 12 13 14 15	106 a.u.
2'F-ANA at 1 2 13 14	49.8 a.u.
2'F-ANA at 1 4 8 9 10 12 14 15	65 a.u.
2'F-ANA at 3 5 6 7 8 9 12 15	232 a.u.
2'F-ANA at 2 4 5 12 13 15	96.9 a.u.
2'F-ANA at 1 2 4 7 8 9 10 12 13 14	49.2 a.u.
2'F-ANA at 1 3 5 8 9 12 13 14 15	48.9 a.u.
2'F-ANA at 1 2 6 7 11 13 15	98 a.u.
2'F-ANA at 1 2 3 4 5 6 13 15	52.6 a.u.
2'F-ANA at 4 12 13	430 a.u.
2'F-ANA at 9 10 13 14	116 a.u.
2'F-ANA at 3 5 7 11 12 13 14	69.6 a.u.
2'F-ANA at 1 2 3 5 6 7 9 12	140 a.u.
2'F-ANA at 1 3 6 7 8 13 14 15	141 a.u.
2'F-ANA at 1 2 4 5 9 10 12 14 15	44.8 a.u.

Series 2
Target: RNA binding protein fox-1 homolog 2, RRM domain, GST-SBP tag (RBFOX2, Homo sapiens, UniProt O43251-10, residues 100-194)
Technique: RNA Bind-n-Seq
Molecule type: RNA
Sample: in vitro
Concentration: 365 nM
Setting: natural RNA segment, single round, ends assumed
Baseline: no-protein control
Reading: higher = stronger binding
Target sequence (chain): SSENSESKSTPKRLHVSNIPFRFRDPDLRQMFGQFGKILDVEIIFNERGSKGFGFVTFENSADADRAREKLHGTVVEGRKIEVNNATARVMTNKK
Sequence	RBNS enrichment (R)
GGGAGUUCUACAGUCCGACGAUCGGGCCAGAUAGAUAGGUCCUAGCAGAAGGCAUUGAGGUGAGGGAUCAUUUUGGGUCAGACAUCAAUGUCCCUGUCCCCCCUGGGUCCAGCCAAGCUGUGCCCCAUCCCCCUGGAAUUCUCGGGUGCCAA	0.303
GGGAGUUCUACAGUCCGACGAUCUUGGUAAUGGUGUUGUGGCCUCAGAUUUCUUCUAGUAUUUGCUUCUGAUGAAUGAUUAUGGUCUAUACAUAAAAAAGUAAGACUAAGUAUUGCUGAAUUUGCAGUUAUGUUGGAAUUCUCGGGUGCCAA	1.12
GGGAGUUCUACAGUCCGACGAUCUCAGCACCUCUGAGGUGUGCAUUAGCCACUUAUAGCAGCAGUCUGUACUCUUUCAAGUACGCAAGCUUUGACUUCACUACUUGCUGUAGCCUGUCCCCACUGUCUAUCCAUGGAAUUCUCGGGUGCCAA	0.3
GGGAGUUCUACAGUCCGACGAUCCCAAAGCUUUGCUGUCAUCACAUAAAUGAAUUAAAUCACAUGUGAAAGGGAACACACCCAAUUUUAUGUUAAGGUGAAACCAGCAGUUUGCUUCUUUUAUUAGUAAUGUGUGGAAUUCUCGGGUGCCAA	0.282
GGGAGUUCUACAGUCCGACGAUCAAGAAGGCCUGCCAGCGCUUUCUGGACUGAGCUGUGCUGCAGGUUCUACUCUGUUCCUGGCCCUGCCGGCAGCCACUGACAAGAGGCCAGUGUGUCACCAGCCCUCAGCAUGGAAUUCUCGGGUGCCAA	0.954
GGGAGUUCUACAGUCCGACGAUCUCAUAAACCCUGCAAGUCUUCAUGGUCUUCUCACCAGCCUUUCCAGCAGGUUCUAGUGCCUUGACCUGGGGUAGGACCGAGUGAAGGAGGAAGAGGGUAAAAGGGCACAGUGGAAUUCUCGGGUGCCAA	0.765
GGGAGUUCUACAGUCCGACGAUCUAGUGGCUAGGGGUAUGUGGGACUGCGGCACUGGACUGGGUGCUUCAUGGUGGGCCCUGUGCUCUGUUAAUGAGUCCCUGGCAUGGAUGGAUGAAUACCUGAGUCACCAGUGGAAUUCUCGGGUGCCAA	2.64
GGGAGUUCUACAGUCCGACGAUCGGGUUCUCUGGUCCAAGACCCUGCUUUAAAGAGAGUCUUUGGCGUGCUCAGACUCCAGCGCUCCGUUCUUCAAGGAGGUUGACUUGCCUCUCGGGCCCCGUAGGUACCAAUGGAAUUCUCGGGUGCCAA	0.291
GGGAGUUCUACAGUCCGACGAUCGUUUCGUUACAUUUAGAUGAAAGUUAAACUUUACUGAAUUUCAGUACAUUAGUUUUUACACUAAAACUUUACAAGAUAAAAUUGGACUUCAUUUAGUAUCUUUUUAACAGUGGAAUUCUCGGGUGCCAA	0.404

Series 3
Target: RING finger protein unkempt homolog, zinc fingers 1-6, SBP tag (UNK, Homo sapiens, UniProt Q9C0B0, residues 30-357)
Chain of UniProt Q9C0B0 (30-357, looked up): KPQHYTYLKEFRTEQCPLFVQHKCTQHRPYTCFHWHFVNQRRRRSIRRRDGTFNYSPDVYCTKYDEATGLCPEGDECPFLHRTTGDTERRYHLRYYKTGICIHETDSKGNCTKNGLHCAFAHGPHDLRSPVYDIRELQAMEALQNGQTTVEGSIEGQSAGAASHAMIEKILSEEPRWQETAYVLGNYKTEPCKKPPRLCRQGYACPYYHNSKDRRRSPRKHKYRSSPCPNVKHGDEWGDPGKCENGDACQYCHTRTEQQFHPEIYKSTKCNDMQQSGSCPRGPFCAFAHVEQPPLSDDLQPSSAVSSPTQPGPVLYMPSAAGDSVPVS
Technique: RNA Bind-n-Seq
Molecule type: RNA
Sample: in vitro
Concentration: 100 nM
Setting: RNA with constant flanks, vertebrate orthologous sites, ends assumed
Baseline: input RNA pool
Reading: higher = stronger binding
Sequence	bound/input enrichment [ratio]
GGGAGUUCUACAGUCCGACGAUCUACCUAACCCCAAAGCUGGACUUUUGUUUAAUAGUUGCGUCACCACCACUGCUUUAAUUAGCAAUAUUAAAGUAAGAGUAAAUAUUACAGUAAUACGUCUUGCUCGUUGUUUCACGAGCCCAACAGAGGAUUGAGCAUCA	0.611
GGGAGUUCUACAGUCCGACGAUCUCUACUGACCACUCACUGUUAUGUCUGGAUAUCUGUAAACACUUUUCUUUUUGUUCUUAGUCUUUUUCUUGUAUAAUUGAUGUUCUCUUAAAAUCGUUAAUGUAUCACAGGGCUGAUGUUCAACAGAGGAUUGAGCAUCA	1.23
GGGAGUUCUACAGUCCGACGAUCCUGAAGCUUUCUAUUUGGCUGCACUUGCAUAAGCUGCAACAAACAGAAUAAAGAAUUUCAUAUCCUCUGUCUAUCAUUUAGAUGCAUGGUCAAUGAGCUUUGCACACAAUGUGUUUGGAGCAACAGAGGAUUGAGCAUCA	0.344
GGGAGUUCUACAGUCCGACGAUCCAGCUGAUUCACUAAUUGGGAGAGCUGCACAUAUAGCUGUUCUUGAUUCAGAAAUAUUUUUAGAAAAAUUUUUUCUGGUUGCUGCCCUCAAAUAUUUCCAGUAGUAUAAAAACAUUUUUACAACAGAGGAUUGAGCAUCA	1.13
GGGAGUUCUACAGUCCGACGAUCUUGUACUUGGAAAAAGUCAUCUUUAGUUUUAAACUAGUCACGGUGAUACCUAGUCUGUGCUAGUGGAAUCAUUUACUCUUACCUUUUAAACUAUCUCCUCUGUCUGAUACCUGAAACCAGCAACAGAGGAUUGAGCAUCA	0.618
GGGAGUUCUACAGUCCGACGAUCUUAUAUGGGCCUCGCAGAGUUGAAGUAAUUGAAGAAGAAACUUCACAGUAAUCAUCAUCUUAGUAUCUCUGACUAGGUGUGGAAUAAAUGUUGUUCGUUGAUCAUUUCUAAACCCCAGAGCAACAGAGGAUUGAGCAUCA	0.729
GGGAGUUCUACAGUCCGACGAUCAUGGUGGAUGUACAUUAUCAUUUCAUAUAGAAAAUAUAAAAAUUCAUUUUGUUUUUAAGCUAGGUGUUAAACUGGAAUAGCUAUUAUACCCCUGAGAAUGGGGCAGUUGUGCCCUUCCCUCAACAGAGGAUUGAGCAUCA	2.98
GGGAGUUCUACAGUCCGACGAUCUGAGCAUACAUAUACAAUGUGUAUCAAAUGCUGGUUGUAAAAUUAAACCAUCAUCUAGAAUAGAGUUAAUUUGUUAUAAUCAAGCUACAAAUAGGUUUUCUUAAACCAGAGAUGCACUGCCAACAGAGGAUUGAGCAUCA	0.514
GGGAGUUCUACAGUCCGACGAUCAUAGAAGAACUCUUGCAGUCUUAGAUGUUAUAAAAUAUAUAUCUGAAUUGUAAGAGCUGUUUAGCACAUUUUUUUUUUUUAAGCACUUGUUUUGGGUACAAAGCAUUUCUGAAAGUUUGCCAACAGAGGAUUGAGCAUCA	2.02
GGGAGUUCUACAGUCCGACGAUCGAACAUAUGUAGAAAACAACUUUCACUGAACCCAUUGUCAAGUUUUCCCCUAGAAUUUUAUUUGGACUUCUUUUGUUUUAUACAAGCUUGCAGUGUUUGUCAUUAUUAGUCCACAAUUAACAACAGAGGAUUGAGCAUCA	0.493
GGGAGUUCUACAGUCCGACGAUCUUCAGGCACAACUGACUGGUUCACAGCAUCCCUUACAUAGCUACCUAUCAAGUGCAAGUAUUGGUAAUUUUCAGGAACCAUCCAGGCAGUCGUCUUUAUCCUGUAGUUCAGUUCGAGAUUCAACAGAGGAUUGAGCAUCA	0.541

Series 4
Target: Ras GTPase-activating protein-binding protein 1, C-terminal RGG region (G3BP1, Homo sapiens, UniProt Q13283)
Chain of UniProt Q13283 (whole entry, looked up): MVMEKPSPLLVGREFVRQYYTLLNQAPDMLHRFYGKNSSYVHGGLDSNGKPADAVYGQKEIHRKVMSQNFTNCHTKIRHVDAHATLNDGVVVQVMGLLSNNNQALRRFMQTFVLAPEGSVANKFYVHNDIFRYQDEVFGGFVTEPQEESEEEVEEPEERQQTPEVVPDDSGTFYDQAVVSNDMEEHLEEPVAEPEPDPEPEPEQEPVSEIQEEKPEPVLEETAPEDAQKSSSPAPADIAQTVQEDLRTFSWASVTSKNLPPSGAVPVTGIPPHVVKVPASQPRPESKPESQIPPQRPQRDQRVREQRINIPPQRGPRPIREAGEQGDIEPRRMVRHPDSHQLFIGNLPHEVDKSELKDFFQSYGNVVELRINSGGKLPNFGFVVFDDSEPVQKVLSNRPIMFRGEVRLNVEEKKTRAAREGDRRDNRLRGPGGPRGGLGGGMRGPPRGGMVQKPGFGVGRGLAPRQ
Technique: RNA Bind-n-Seq
Molecule type: RNA
Sample: in vitro
Concentration: 1 µM
Setting: whole 134-nt RNA, ends assumed
With: 150 mM KCl
Baseline: input library
Reading: higher = stronger binding
Sequence	log2 enrichment
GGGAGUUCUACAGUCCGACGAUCGUCCUGUGCUACACAUCGUAUGUACCGAAUCGGGUUUUUUUGGGAAAGGGUUUUUGGGAAAGUAUUAUGUUACGCCGUUCGGAUCUGCACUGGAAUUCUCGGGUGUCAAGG	-0.0496
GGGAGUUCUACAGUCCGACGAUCACCAUGCAGGUGGGCAUCUUUGGGAAGUGGGGCAAGGGGGGGAUAGGGAAAAGGGUAACACUUUGGGAACAGGUGGUCCCAGGUCGUUUCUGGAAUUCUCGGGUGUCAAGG	-0.883
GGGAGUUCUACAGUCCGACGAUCAAGUCCUGUGCUACACAUCGUAUGUACCGAAUCGGCCCCGGGCCCCGGGCCCCGGGAAAGUAUUAUGUUACGCCGUUCGGAUCUGCACUUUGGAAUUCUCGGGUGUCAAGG	-2.02
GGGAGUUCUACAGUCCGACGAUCGCAGGAAGUAAAAACAAAUGGAAAUGCUUCGGAUAGUGGCAGGGGUGGGGGUUGCUAAGGAAAGGGUGGGAUGGGAGUGGGUAAGGAGUUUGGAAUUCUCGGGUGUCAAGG	0.622
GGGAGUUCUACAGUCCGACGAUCUCCUGUGCUACACAUCGUAUGUACCGAAUCGGGAAAAAGGGGAAAAAGGGAAAAAGGGGAAAGUAUUAUGUUACGCCGUUCGGAUCUGCAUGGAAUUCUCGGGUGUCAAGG	-0.479
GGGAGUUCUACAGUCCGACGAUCCCUGUGCUACACAUCGUAUGUACCGAAUCGGGGAAAAAAAGGGGUUUUUUUGGGGUGGGGAAAGUAUUAUGUUACGCCGUUCGGAUCUGCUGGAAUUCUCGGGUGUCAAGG	0.473
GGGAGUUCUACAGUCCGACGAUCGCAGGAAGUAAAAACAAAUGGAAAUGCUUCGGAUAGUGGCAGGGGUGGGGGUUGCUAAGGAAACGGUGGGAUGGGAGUGGGUAAAGAGUUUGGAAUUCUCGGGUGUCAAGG	1.18
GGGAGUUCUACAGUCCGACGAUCGUCCUGUGCUACACAUCGUAUGUACCGAAUCGGGGAAAAAAAGGGGAAAGGGGAGGGGAAAGUAUUAUGUUACGCCGUUCGGAUCUGCACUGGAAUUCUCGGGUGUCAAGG	2.34
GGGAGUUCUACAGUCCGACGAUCCCUGUGCUACACAUCGUAUGUACCGAAUCGGGUUUUUGGGAAAAAAAGGGAAAAAAAGGGAAAGUAUUAUGUUACGCCGUUCGGAUCUGCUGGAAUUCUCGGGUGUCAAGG	-1.98
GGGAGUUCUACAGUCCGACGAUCGUCCUGUGCUACACAUCGUAUGUACCGAAUCAAAUUUUUUUAAACCCAAACCCCCAAAAAAGUAUUAUGUUACGCCGUUCGGAUCUGCACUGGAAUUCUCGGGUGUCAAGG	-1.15
